Assay results pooled from the literature.
Each line is one published result; not all experiments were run side by side. Values joined by “and” are separate records of one study, mostly repeats; a detail may differ. ± marks the error that the study gave.
CES1: Liver carboxylesterase 1 (CES1, Homo sapiens, UniProt P23141)
Chain of UniProt P23141 (whole entry, looked up): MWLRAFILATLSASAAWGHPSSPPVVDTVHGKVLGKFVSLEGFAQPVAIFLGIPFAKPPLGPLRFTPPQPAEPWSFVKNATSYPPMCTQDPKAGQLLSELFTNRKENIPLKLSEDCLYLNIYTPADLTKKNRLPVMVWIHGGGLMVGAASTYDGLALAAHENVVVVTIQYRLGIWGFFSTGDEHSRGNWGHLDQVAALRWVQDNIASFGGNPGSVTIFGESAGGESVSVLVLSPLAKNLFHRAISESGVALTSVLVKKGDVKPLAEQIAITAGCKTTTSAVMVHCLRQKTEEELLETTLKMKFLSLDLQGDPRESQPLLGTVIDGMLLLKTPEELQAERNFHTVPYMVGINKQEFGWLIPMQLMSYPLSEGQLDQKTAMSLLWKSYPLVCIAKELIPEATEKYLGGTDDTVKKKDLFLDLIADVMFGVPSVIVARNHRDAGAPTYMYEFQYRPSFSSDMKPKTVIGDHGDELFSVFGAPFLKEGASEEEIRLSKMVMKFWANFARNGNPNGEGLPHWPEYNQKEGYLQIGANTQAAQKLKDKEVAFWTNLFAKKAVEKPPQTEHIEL
MAPK14: Mitogen-activated protein kinase 14 (MAPK14, Homo sapiens, UniProt Q16539)
Chain of UniProt Q16539 (whole entry, looked up): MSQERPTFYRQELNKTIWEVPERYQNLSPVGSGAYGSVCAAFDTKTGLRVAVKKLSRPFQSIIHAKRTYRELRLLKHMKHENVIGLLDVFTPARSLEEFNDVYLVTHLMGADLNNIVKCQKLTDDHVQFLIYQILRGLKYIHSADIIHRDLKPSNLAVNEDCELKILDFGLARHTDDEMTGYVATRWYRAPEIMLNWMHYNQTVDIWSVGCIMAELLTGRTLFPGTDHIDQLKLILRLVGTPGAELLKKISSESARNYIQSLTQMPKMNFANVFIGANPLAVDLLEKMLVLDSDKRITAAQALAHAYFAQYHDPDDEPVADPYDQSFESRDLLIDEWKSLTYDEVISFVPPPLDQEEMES
T1: RNA aptamer; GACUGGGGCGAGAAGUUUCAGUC
Chain of UniProt O75762 (whole entry, looked up): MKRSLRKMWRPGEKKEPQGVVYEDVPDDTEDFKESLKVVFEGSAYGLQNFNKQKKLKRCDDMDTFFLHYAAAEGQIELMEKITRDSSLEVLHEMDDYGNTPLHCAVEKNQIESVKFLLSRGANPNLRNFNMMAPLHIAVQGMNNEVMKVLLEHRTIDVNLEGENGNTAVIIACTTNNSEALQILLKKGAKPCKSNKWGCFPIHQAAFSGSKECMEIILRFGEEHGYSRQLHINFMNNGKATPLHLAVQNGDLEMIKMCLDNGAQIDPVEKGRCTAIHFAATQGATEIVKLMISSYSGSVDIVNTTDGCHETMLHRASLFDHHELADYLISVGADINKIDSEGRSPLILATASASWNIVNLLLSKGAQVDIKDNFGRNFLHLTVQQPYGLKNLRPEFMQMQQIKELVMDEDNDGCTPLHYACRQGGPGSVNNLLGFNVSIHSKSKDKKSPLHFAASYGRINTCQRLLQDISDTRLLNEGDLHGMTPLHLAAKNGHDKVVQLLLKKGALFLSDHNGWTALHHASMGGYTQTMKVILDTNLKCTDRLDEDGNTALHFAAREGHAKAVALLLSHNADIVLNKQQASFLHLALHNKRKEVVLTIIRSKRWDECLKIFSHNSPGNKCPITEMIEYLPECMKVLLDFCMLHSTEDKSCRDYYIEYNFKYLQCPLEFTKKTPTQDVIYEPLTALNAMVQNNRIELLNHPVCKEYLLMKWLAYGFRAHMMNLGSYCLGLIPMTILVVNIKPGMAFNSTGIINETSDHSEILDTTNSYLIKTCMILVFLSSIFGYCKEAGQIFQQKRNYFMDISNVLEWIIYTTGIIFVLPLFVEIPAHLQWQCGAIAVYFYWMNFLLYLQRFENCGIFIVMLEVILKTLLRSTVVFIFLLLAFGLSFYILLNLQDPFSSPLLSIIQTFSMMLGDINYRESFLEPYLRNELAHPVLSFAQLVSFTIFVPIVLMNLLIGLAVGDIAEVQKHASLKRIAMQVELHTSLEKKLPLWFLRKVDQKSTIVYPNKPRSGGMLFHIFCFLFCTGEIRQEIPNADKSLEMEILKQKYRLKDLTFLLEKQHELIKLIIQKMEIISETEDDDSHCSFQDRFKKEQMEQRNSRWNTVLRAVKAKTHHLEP
Chain of UniProt G5EFS4 (whole entry, looked up): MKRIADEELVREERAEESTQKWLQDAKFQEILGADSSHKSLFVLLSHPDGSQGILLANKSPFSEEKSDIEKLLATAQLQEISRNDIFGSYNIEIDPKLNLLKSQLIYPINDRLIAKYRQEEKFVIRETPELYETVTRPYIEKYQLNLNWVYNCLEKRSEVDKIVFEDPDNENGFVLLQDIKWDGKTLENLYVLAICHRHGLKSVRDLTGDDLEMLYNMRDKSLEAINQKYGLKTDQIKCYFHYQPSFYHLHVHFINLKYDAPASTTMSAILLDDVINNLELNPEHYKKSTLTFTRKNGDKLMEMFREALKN
Chain of UniProt O00257 (whole entry, looked up): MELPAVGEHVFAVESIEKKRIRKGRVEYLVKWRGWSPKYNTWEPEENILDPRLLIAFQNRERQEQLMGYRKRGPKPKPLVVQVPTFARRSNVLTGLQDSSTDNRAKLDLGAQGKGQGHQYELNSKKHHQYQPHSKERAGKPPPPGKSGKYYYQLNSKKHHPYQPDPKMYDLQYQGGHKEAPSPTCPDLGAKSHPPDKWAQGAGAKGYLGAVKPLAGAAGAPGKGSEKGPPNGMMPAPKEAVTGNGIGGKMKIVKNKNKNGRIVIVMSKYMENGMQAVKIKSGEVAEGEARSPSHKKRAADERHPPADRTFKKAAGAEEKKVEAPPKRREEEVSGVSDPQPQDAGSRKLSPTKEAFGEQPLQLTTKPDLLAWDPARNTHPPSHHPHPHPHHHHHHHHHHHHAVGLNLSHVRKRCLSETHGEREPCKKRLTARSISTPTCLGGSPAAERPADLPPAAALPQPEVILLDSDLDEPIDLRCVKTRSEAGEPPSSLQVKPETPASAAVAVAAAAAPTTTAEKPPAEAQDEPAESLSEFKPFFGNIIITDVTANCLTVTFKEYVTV
Chain of UniProt Q96SW2 (whole entry, looked up): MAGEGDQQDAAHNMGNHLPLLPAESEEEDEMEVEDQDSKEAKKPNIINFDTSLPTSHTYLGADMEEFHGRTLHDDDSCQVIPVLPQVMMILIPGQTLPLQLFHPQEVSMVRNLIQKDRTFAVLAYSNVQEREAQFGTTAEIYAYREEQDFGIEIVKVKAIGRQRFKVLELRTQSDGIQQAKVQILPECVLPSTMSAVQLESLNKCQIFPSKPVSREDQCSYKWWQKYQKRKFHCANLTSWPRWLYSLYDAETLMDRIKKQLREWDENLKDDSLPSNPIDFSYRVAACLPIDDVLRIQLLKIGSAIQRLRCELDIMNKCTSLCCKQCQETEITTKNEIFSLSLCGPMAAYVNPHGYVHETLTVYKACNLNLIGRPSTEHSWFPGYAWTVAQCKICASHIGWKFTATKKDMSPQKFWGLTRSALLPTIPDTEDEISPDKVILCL
Chain of UniProt P61073 (whole entry, looked up): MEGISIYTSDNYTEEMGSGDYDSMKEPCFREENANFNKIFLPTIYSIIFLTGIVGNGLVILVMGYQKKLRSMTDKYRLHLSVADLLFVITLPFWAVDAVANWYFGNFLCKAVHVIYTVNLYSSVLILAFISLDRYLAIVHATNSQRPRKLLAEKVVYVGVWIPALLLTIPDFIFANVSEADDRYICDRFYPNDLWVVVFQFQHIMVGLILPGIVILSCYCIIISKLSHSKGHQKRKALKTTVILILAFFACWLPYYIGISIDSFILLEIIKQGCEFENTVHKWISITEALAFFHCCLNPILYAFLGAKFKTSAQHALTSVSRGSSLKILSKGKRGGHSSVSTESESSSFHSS
Chain of UniProt Q6W5P4 (whole entry, unmodified, looked up): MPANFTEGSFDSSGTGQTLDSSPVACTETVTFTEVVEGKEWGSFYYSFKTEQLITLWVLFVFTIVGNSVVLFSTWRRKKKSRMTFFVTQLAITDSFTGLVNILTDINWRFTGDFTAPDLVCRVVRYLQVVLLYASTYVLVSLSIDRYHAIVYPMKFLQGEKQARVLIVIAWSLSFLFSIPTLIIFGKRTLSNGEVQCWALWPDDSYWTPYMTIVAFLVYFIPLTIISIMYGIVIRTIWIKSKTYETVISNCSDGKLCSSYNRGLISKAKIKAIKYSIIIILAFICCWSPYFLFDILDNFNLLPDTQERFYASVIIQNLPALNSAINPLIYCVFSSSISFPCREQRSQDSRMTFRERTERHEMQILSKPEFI
Chain of UniProt P51686 (whole entry, looked up): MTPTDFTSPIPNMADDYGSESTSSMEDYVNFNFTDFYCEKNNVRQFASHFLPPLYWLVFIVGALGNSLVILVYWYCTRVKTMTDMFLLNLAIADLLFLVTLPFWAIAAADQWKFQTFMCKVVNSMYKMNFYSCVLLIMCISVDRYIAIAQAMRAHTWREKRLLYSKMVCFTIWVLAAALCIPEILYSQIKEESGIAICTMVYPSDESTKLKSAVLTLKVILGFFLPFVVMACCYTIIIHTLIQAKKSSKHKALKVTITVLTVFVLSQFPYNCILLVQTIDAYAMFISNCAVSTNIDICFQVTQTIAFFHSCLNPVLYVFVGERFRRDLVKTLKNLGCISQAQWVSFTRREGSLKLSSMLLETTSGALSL
Chain of UniProt P28907 (whole entry, looked up): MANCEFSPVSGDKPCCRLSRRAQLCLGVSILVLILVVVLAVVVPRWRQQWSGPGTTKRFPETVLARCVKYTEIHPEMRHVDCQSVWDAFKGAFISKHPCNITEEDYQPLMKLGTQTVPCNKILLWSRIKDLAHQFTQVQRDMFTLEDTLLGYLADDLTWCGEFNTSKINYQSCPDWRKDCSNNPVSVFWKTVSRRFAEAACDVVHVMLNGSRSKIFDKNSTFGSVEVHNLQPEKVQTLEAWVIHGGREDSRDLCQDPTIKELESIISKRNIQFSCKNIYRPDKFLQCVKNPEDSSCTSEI
Chain of UniProt P16257 (whole entry, looked up): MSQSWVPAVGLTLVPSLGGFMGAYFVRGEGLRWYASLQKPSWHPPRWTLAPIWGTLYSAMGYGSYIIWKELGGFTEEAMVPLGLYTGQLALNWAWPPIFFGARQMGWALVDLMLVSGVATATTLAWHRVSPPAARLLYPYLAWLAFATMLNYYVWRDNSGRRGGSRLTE

CN(C)c1ccc2c(-c3ccc(C(=O)NCCCn4cc(COc5cc(C(=O)c6cc(Cl)ccc6NS(=O)(=O)c6ccc(C(C)(C)C)cc6)cc[n+]5[O-])nn4)cc3C(=O)[O-])c3ccc(=[N+](C)C)cc-3oc2c1
residence time (CCR9 (Homo sapiens, UniProt P51686); binding, BRET; cell membranes): 90 min

C[C@]12C[C@H](c3ccc(S(C)(=O)=O)cc3)C3=C4CCC(=O)C=C4CC[C@H]3[C@@H]1CC[C@@]2(O)C(F)(F)C(F)(F)F
fully effective dose (Progesterone receptor (Rattus norvegicus, UniProt Q63449); pregnancy termination; rat, early pregnancy; oral): 0.5 mg/kg

NC[C@@H]1O[C@H](O[C@H]2[C@@H](O)[C@H](O[C@@H]3[C@@H](O)[C@H](N)C[C@H](N)[C@H]3O[C@H]3O[C@H](CN)[C@@H](O)[C@H](O)[C@H]3N)O[C@@H]2CO)[C@H](N)[C@@H](O)[C@@H]1O
melting temperature change (T1, RNA aptamer; UV melting; 1 µM RNA, 10 µM molecule, pH 6.8, NaCl 100 mM): 15.6 °C

CC(=O)NCCN(CC(=O)NCCN(CC(=O)NCCN(CC(=O)NCCC(N)=O)C(=O)C[C@@H](N)CCCNC(=N)N)C(=O)C[C@@H](N)CCCCN)C(=O)C[C@@H](N)Cc1ccccc1
binding free energy ΔG° (HIV-1 TAR RNA; 25 °C): -8.39 ± 0.311 kcal/mol

N=C(N)NCCC[C@H](NC(=O)[C@H](Cc1ccccc1)NC(=O)[C@@H](N)CO)C(=O)N[C@@H](CC(N)=O)C(N)=O
maximal response (NPSR1 (Homo sapiens, UniProt Q6W5P4, N107I); cAMP accumulation, agonist; HEK293T; human receptor, unit not given; relative to: maximal assay window): 1

CC(=O)NCCN(CCC(=O)NCCN(CCC(=O)NCCN(CCC(=O)NCCC(N)=O)C(=O)[C@@H](N)Cc1ccccc1)C(=O)[C@@H](N)CCCNC(=N)N)C(=O)[C@@H](N)CCCNC(=N)N
non-electrostatic TΔS° (HIV-1 TAR RNA): -5.57 ± 0.311 kcal/mol

NC/C(=C\F)COc1ccc(Cl)c(-c2cc(=O)[nH]c(=S)n2CC(N)=O)c1
potency ratio (AOC3 (Homo sapiens, UniProt Q16853); enzyme activity, Amplex Red H2O2; relative to: PXS-4728 over compound): > 1000 fold

O=S(=O)(Nc1ccc(O)c2ccccc12)c1ccc(Cl)cc1
remaining activity (CD38 (Homo sapiens, UniProt P28907); cyclase activity, fluorometric; 50 µM, added: NGD+ substrate; relative to: untreated): 24 ± 3.3%

CCCCCCCC(=O)OC(C#N)c1ccc2cc(OC)ccc2c1 (racemic)
specific activity (CES1; substrate; 50 µM, pH 8, 37 °C, enzyme purity 25%): 950 pmol/min/µg

O=C1CCC(N2C(=O)c3cccc(NCC(=O)N4CCN(c5ccc(Nc6nccc(Oc7ccccc7)n6)cc5)CC4)c3C2=O)C(=O)N1 (stereo not shown)
degradation (CRBN/Zinc finger protein Aiolos (Homo sapiens, UniProt Q96SW2+Q9UKT9); degrader, TMT quantitative proteomics; Mino; 200 nM, 4 h): > 60%

CC(=O)NCCN(CCC(=O)NCCN(CCC(=O)NCCN(CCC(=O)NCCC(N)=O)C(=O)[C@@H](N)CCCNC(=N)N)C(=O)[C@@H](N)Cc1ccccc1)C(=O)[C@@H](N)Cc1ccccc1
heat capacity change ΔCp (HIV-1 TAR RNA; concentration not given): -1.54 ± 0.25 kJ/mol/K

O=C(O)C(CO)NCc1cc(Cl)c(OCc2cccc(-c3ccccc3)c2Br)cc1OCc1cccnc1 (stereo not shown)
dissociation rate constant (koff) (Programmed cell death 1 ligand 1 (Macaca fascicularis, UniProt G7PSE7); SPR): 0.000202 s⁻¹

C[C@H](NC(=O)[C@H](Cc1ccccc1)NC(=O)c1ccc(C(F)(F)F)cc1)C(=O)N[C@H](C(=O)N[C@@H](CCCC[N+](C)(C)C)C(=O)N[C@@H](CO)C(N)=O)C1CCCC1
selectivity ratio (E3 SUMO-protein ligase CBX4 (Homo sapiens, UniProt O00257); binding, isothermal titration calorimetry; relative to: Cbx7 over E3 SUMO-protein ligase CBX4 Kd): 1.8 fold

Cc1ccc2c(c1Br)C(O)(CC(=O)c1ccc3c(c1)OCO3)C(=O)N2 (stereo not shown)
Rmax (Uncharacterized protein (Trypanosoma brucei brucei, UniProt Q386Q8); binding, surface plasmon resonance): 30.67 ± 0.2 RU

O=C(NC[C@@H](Cc1ccc(F)cc1)N1CCC(O)(C(F)(F)F)CC1)C1(c2ccc(Cl)cc2)CCCC1
Hill slope (TRPA1 (Homo sapiens, UniProt O75762); calcium influx; HEK293F transiently expressing TRPA1): 1.6 and 1.5

CC(=O)[O][Ag]=[c]1n(C)ccn1CC([O-])c1ccccc1.[Na+] (stereo not shown)
fluorescence minimum (ACTA1 (Oryctolagus cuniculus, UniProt P68135); actin polymerization; 5 µM): ~12000 RFU

CCCCCCCC(=O)Nc1ccc(OC)nc1C
Km (CES1; enzyme activity, substrate; pH 8, 37 °C, substrate 3.13 to 100 µM): 25 µM

CC(=O)NCCN(CC(=O)NCCN(CC(=O)NCCN(CC(=O)NCCC(N)=O)C(=O)[C@@H](N)Cc1ccccc1)C(=O)[C@@H](N)CCCNC(=N)N)C(=O)[C@@H](N)Cc1ccccc1
heat capacity change ΔCp (HIV-1 TAR RNA; concentration not given): -2.11 ± 0.21 kJ/mol/K

NC(=O)C1CCNC(=O)C(CCCNC(=O)c2cnccn2)NC(=O)C(Cc2ccco2)NC(=O)C(CC2CC2)NC(=O)C=CC(=O)N1 (stereo not shown)
enrichment factor (MAPK14; DNA-templated library selection; one selection round): 1.1

CC(=O)NCCN(CCC(=O)NCCN(CCC(=O)NCCN(CCC(=O)NCCC(N)=O)C(=O)[C@@H](N)Cc1ccccc1)C(=O)[C@@H](N)CCCNC(=N)N)C(=O)[C@@H](N)Cc1ccccc1
non-electrostatic TΔS° (HIV-1 TAR RNA): -1.36 ± 0.693 kcal/mol

CNc1nc2c(c(=O)[nH]1)[n+](C)cn2[C@@H]1O[C@H](COP(=O)(O)OP(=O)(O)OP(=O)(O)OC[C@H]2O[C@@H](n3cnc4c(=O)[nH]c(N)nc43)[C@H](O)[C@@H]2O)[C@@H](O)[C@H]1O
initial hydrolysis rate (m7GpppX diphosphatase (dcs-1, Caenorhabditis elegans, UniProt G5EFS4); decapping, substrate, HPLC; concentration not given): 3.73 ± 0.28 µM/min

CC(=O)NCCN(CCC(=O)NCCN(CCC(=O)NCCN(CCC(=O)NCCC(N)=O)C(=O)[C@@H](N)CCCCN)C(=O)[C@@H](N)Cc1ccccc1)C(=O)[C@@H](N)Cc1ccccc1
non-electrostatic TΔS° (HIV-1 TAR RNA): -4.04 ± 0.287 kcal/mol

Cc1cc(=O)oc2cc3c(c(C)c12)C(=O)c1c(O)cccc1C3=O
inhibition (mushroom tyrosinase; enzyme activity; 100 µg/mL, added: L-DOPA): 39.76 ± 0.12%

CC(=O)NCCN(CCC(=O)NCCN(CCC(=O)NCCN(CCC(=O)NCCC(N)=O)C(=O)[C@@H](N)Cc1ccccc1)C(=O)[C@@H](N)Cc1ccccc1)C(=O)[C@@H](N)CCCNC(=N)N
non-electrostatic ΔG° (HIV-1 TAR RNA; extrapolated to 1 M KCl): -8.29 ± 0.0956 kcal/mol

O=C(c1ccco1)N1CCN(Cc2ccc(Br)cc2)CC1
ligand efficiency (MAPK14; enzyme activity): 0.15

CCc1cc(C)n2nc(-c3ccc(OCC[18F])cc3)c(CC(=O)N(CC)CC)c2n1
K1 influx rate constant (Tspo (Rattus norvegicus, UniProt P16257); two-tissue compartment model; rat C6 glioma model, brain; 60 min dynamic PET): 6.26 ± 1.13 mL/cm3/min

CN1C(=O)[C@@H](Cc2ccc(O)cc2)NC(=O)CNC(=O)[C@H](Cc2ccc3ccccc3c2)NC(=O)[C@H](CCCNC(=N)N)NC(=O)[C@H]1CCCNC(=O)c1ccc(CNC(=O)CN2CCN(CC(=O)O)CCN(CC(=O)O)CCN(CC(=O)O)CC2)cc1 [gallium-68 labelled]
SUVmax (CXCR4 (Homo sapiens, UniProt P61073); PET/CT; human, left adrenal lateral limb nodule; 185 MBq, 50 min): 23

CC[C@H](C)[C@H](NC(=O)[C@H](CCC(=O)O)NC(=O)[C@H](CO)NC(=O)[C@@H](NC(=O)[C@@H](N)CO)C(C)C)C(=O)N[C@@H](CCC(N)=O)C(=O)N[C@@H](CC(C)C)C(=O)N[C@@H](CCSC)C(=O)N[C@@H](Cc1c[nH]cn1)C(=O)N[C@@H](CC(N)=O)C(=O)N[C@@H](CC(C)C)C(=O)NCC(=O)N[C@@H](CCCCN)C(=O)N[C@@H](Cc1c[nH]cn1)C(=O)N[C@@H](CC(C)C)C(=O)N[C@@H](CC(N)=O)C(=O)N[C@@H](CO)C(=O)N[C@@H](CCSC)C(=O)N[C@@H](CCC(=O)O)C(=O)N[C@@H](CCCNC(=N)N)C(=O)N[C@H](C(=O)N[C@@H](CCC(=O)O)C(=O)N[C@@H](Cc1c[nH]c2ccccc12)C(=O)N[C@@H](CC(C)C)C(=O)N[C@@H](CCCNC(=N)N)C(=O)N[C@@H](CCCCN)C(=O)N[C@@H](CCCCN)C(=O)N[C@@H](CC(C)C)C(=O)N[C@@H](CCC(N)=O)C(=O)N[C@@H](CC(=O)O)C(=O)N[C@H](C(=O)N[C@@H](Cc1c[nH]cn1)C(=O)N[C@@H](CC(N)=O)C(=O)N[C@@H](Cc1ccccc1)C(=O)N[C@@H](CCCCNC(=O)c1ccc2c(c1)C1(OC2=O)c2ccc(N(C)C)cc2Oc2cc(N(C)C)ccc21)C(N)=O)C(C)C)C(C)C
kon (PTH1R (Homo sapiens, UniProt Q03431); binding, NanoBRET; pH 7.5, HEPES buffer): 480000 ± 50000 M⁻¹ s⁻¹

Some of these lines once more:
C[C@H](NC(=O)[C@H](Cc1ccccc1)NC(=O)c1ccc(C(F)(F)F)cc1)C(=O)N[C@H](C(=O)N[C@@H](CCCC[N+](C)(C)C)C(=O)N[C@@H](CO)C(N)=O)C1CCCC1
selectivity ratio (E3 SUMO-protein ligase CBX4 (Homo sapiens, UniProt O00257); binding, isothermal titration calorimetry; relative to: Cbx7 over E3 SUMO-protein ligase CBX4 Kd): 1.8 fold

Cc1ccc2c(c1Br)C(O)(CC(=O)c1ccc3c(c1)OCO3)C(=O)N2 (stereo not shown)
Rmax (Uncharacterized protein (Trypanosoma brucei brucei, UniProt Q386Q8); binding, surface plasmon resonance): 30.67 ± 0.2 RU

O=C(NC[C@@H](Cc1ccc(F)cc1)N1CCC(O)(C(F)(F)F)CC1)C1(c2ccc(Cl)cc2)CCCC1
Hill slope (TRPA1 (Homo sapiens, UniProt O75762); calcium influx; HEK293F transiently expressing TRPA1): 1.6 and 1.5

CC(=O)[O][Ag]=[c]1n(C)ccn1CC([O-])c1ccccc1.[Na+] (stereo not shown)
fluorescence minimum (ACTA1 (Oryctolagus cuniculus, UniProt P68135); actin polymerization; 5 µM): ~12000 RFU
